# Experimental data of several laboratories.
# Lines come from different studies, so protocols differ. “And” joins repeats or separate records; there may be more than shown.
# FGFR3: Fibroblast growth factor receptor 3 (FGFR3, Homo sapiens, UniProt P22607)
# Chain of UniProt P22607 (whole entry, looked up): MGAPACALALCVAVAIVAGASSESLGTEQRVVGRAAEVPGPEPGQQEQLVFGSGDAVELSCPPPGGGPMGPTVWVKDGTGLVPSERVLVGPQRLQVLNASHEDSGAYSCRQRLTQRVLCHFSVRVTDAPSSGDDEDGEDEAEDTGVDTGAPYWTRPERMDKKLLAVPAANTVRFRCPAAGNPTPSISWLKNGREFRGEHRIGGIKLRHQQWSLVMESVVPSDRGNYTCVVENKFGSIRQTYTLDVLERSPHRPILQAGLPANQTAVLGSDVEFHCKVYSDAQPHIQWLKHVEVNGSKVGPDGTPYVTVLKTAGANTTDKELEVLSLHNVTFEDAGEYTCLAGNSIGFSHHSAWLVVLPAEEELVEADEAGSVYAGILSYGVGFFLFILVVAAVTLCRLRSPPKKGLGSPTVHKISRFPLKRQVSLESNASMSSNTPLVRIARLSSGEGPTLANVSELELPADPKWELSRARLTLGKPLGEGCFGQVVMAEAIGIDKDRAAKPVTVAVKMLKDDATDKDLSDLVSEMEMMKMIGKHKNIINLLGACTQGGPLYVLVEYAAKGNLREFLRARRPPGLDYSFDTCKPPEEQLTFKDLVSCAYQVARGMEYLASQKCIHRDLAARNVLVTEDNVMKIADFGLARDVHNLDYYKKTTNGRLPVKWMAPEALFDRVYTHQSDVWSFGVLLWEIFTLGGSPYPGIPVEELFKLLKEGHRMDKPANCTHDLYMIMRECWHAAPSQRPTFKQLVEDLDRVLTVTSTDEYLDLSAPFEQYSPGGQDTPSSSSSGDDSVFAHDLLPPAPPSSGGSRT
Structure (SMILES),tested on,test,system,setting,how to read,endpoint,result
O=C(Cc1ccc(OCc2ccccc2)cc1)NC1(C(=O)O)CCN(C(=O)c2ccc(-c3cccc(Cl)c3)cc2)CC1,FGFR3,"enzyme activity, inhibitor",,10 µM,,activity vs control,119%
O=C=[N][Ru-4]123([n]4c5ccc(O)cc5c5c6c(c7cc(F)c[n+]1c7c54)C(=O)NC6=O)[S+]1CC[S+]2CC[S+]3CC1 (centres unmarked),FGFR3,enzyme activity,,"100 nM, human enzyme, added: 10 µM ATP",relative to: untreated,remaining activity,100%
Cc1[nH]nc2c1N=C(c1ccccc1Cl)c1cnc(N3CCOCC3)cc1N2,FGFR3,"enzyme activity, inhibitor",,0.5 µM,,inhibition,> 99%
O=C(Nc1ccon1)C12CC3CC(C1)CC(n1cnc([N+](=O)[O-])n1)(C3)C2,Trypanosoma cruzi,"reporter mRNA translation, inhibitor, refers to: Renilla luciferase mRNA",cell-free extract,"concentration not given, test 2",relative to: positive over negative control,translation activity,111%
COCC12C(=O)NC3C4(C(OC)CC1O)C1CC5(O)C(OC)C(O)C(OC(C)=O)(C1C5OC(=O)c1ccccc1)C3(O)C(OC)C24 (centres unmarked),FGFR3,"kinase activity, inhibitor, ProQinase kinase profiling",,25 µM,relative to: control,remaining activity,99% and 92%
COc1ccc(NC(=O)Nc2ccc3c(c2)C(=O)N(C(C)CO)CC(C)C(CN(C)Cc2ccc4c(c2)OCO4)O3)cc1 (centres unmarked),FGFR3,"kinase activity, KinaseProfiler",,"0.03 µM, species human",relative to: control,remaining activity,101%
Cc1cc(NC(=O)C23CC4CC(C2)CC(n2cnc([N+](=O)[O-])n2)(C4)C3)no1,Trypanosoma cruzi,"reporter mRNA translation, inhibitor, refers to: capped polyadenylated Renilla luciferase mRNA",cell-free extract,concentration not given,relative to: control RNA,relative translation,113%
NC(=O)C[C@H]1CCc2sc3ncnc(O[C@H]4CC[C@H](N5CCOCC5)CC4)c3c21,FGFR3,"enzyme activity, inhibitor",,10 µM,,inhibition,15%
CNC(=O)C[C@H](Cc1ccc(C#N)cc1)NC(=O)c1cc(-c2ccc(CN[C@H](C)c3ccc(C)cc3)o2)ccc1Cl,FGFR3,"enzyme activity, inhibitor",,1 µM,,activity vs control,91%
C=C1CCCCCCCCCC(CO)C1=O (centres unmarked),FGFR3,cell-free assay,,10 µM,,remaining signal,100%
C=CC(=O)Nc1cccc(-c2cnc3[nH]cc(C(=O)NC(C)(C)C)c3n2)c1,FGFR3,kinase activity,,0.1 µM,,inhibition,23% and 17%
CSCC[C@H](NC(C)=O)C(=O)N[C@@H](CO)C(=O)N[C@@H](CO)C(=O)N1CCC[C@H]1C(=O)N1CCC[C@H]1C(=O)N[C@H]1CSCc2cc3cc(c2)CSC[C@@H](C(=O)N[C@@H](CC(C)C)C(=O)N[C@@H](CCCNC(=N)N)C(=O)N[C@@H](CCCNC(=N)N)C(=O)N[C@@H](Cc2ccc(O)cc2)C(=O)NCC(=O)N[C@@H](CO)C(=O)NCC(=O)N[C@@H](CO)C(=O)NCC(=O)N[C@@H](CO)C(=O)N[C@@H](CC(=O)O)C(=O)N[C@@H](Cc2ccc(O)cc2)C(=O)N[C@@H](CCCCN)C(=O)N[C@@H](CC(=O)O)C(=O)N[C@@H](CC(=O)O)C(=O)N[C@@H](CC(=O)O)C(=O)N[C@@H](CC(=O)O)C(=O)N[C@@H](CCCCN)C(N)=O)NC(=O)[C@H](CSC3)NC(=O)CNC(=O)[C@H](CC(C)C)NC(=O)[C@H]([C@@H](C)O)NC1=O,"Fibroblast growth factor receptor 3, extracellular domain (FGFR3, Homo sapiens, UniProt P22607)","binding, biolayer interferometry",,concentration not given,,BLI response,0.0516 RU
O=c1c(-c2ccc(Cl)c(CN3CCOCC3)c2)coc2cc(O)ccc12,FGFR3,"enzyme activity, inhibitor",,1 µM,,remaining activity,99%
Cc1nc2c(F)cc(-c3nc(Nc4ccc(CNC(=O)CCCCCCC(=O)NO)cc4)ncc3F)cc2n1C(C)C,FGFR3,"enzyme activity, inhibitor",,1 µM,,inhibition,30%
